# Experimental data from different studies.
# Every numbered part comes from another study and shows a few of its results, in no order. Substitutions count along the parent as printed.

# Set 1 — method: universal PBM; molecule type: double-stranded DNA, one strand shown; matrix: in vitro; concentration: not given; reading: higher = stronger binding
# Target: Sal-like protein 4, full length isoform B (SALL4, Homo sapiens, UniProt Q9UJQ4-2, residues 1-616)
# Setting: 8-mer, flanks averaged, mean of replicates
# Target sequence (chain): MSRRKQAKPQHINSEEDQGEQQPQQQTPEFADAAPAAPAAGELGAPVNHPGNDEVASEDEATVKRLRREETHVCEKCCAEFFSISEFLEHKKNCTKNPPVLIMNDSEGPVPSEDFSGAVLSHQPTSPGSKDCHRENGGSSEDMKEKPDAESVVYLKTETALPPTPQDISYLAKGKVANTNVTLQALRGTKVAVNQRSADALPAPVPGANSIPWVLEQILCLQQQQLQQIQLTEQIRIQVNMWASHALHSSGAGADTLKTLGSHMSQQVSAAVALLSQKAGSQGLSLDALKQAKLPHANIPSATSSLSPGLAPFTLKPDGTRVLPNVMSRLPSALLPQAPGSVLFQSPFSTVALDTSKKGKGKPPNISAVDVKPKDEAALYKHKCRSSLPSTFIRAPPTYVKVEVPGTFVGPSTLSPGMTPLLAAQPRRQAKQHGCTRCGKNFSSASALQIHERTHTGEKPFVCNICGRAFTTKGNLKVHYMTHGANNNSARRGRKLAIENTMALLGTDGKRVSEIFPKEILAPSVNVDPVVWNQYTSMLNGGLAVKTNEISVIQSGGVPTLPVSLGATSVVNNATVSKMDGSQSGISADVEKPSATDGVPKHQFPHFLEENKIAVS
Sequence,E-score
CAACTCAG,-0.0498
CTCGCAAA,-0.0513
ATATCGTA,0.266
ACGATTCC,0.0631
CGAACATC,-0.00358
ACATCTAG,0.075
GCTCCATA,-0.0016

# Set 2 — target: CREBRF, bZIP domain (human); method: DHFR protein complementation; matrix: yeast; relative to: wild-type JUN-FOS pair; reading: higher = stronger binding
# Setting: single substitutions, most at no-binding floor
# Parent: JUN, bZIP domain (human); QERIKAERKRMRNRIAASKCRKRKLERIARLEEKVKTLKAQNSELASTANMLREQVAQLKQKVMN; partner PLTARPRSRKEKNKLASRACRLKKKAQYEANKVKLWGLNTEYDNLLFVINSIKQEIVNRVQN
Substitution,binding fitness [natural log]
K39N,-1.44
K39I,-1.54
S47R,-1.38
E44A,-1.25

# Set 3 — method: RNAcompete; molecule type: RNA; matrix: in vitro; concentration: 20 nM; setting: 7-mer, probes averaged, single round; relative to: mean of 7-mers; reading: higher = stronger binding
# Target: PABPC1L2, full length, GST fusion (mouse, UniProt A0ABA7IW68)
# Residues (chain): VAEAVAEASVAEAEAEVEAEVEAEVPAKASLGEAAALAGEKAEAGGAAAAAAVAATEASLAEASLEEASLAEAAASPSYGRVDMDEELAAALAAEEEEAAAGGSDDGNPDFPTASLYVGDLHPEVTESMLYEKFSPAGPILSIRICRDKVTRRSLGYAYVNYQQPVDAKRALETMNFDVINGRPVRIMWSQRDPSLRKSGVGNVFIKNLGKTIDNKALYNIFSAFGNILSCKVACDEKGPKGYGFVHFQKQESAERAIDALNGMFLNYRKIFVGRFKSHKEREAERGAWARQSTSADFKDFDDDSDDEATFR
Sequence,7-mer Z-score
UACGGUG,-0.108
CUAAGAU,-0.133
GUCCGGA,-0.179
AGGACAA,0.577
GUGCCCU,-0.209
AUGUUAA,0.0605
GGCUGAA,0.329
GUCAUAA,0.34

# Further values, each from its own experiment
Substance,target,test,system,conditions,how to read,endpoint,value
"PhoQ, residues 284 288 289 292 302 303 SLGVVW","PhoP, residues 12 14 15 18 19 LHTVM (Escherichia coli, UniProt P23836)","Sort-seq, item: YFP reporter",E. coli,"PhoQ-PhoP variant library, added: 10 µM Mg2+","relative to: high Mg2+ state, higher = stronger signaling",fold induction,23.3

# Some of these lines once more (set 3):
Sequence,7-mer Z-score
AUGUUAA,0.0605
